Experimental data gathered from unrelated publications.
Each numbered part is a random draw from the data of one study; scales do not carry over between parts. Several values in a cell are separate wells, animals, samples, runs or records.
UniProt P00519, sequence (whole entry, unmodified, looked up): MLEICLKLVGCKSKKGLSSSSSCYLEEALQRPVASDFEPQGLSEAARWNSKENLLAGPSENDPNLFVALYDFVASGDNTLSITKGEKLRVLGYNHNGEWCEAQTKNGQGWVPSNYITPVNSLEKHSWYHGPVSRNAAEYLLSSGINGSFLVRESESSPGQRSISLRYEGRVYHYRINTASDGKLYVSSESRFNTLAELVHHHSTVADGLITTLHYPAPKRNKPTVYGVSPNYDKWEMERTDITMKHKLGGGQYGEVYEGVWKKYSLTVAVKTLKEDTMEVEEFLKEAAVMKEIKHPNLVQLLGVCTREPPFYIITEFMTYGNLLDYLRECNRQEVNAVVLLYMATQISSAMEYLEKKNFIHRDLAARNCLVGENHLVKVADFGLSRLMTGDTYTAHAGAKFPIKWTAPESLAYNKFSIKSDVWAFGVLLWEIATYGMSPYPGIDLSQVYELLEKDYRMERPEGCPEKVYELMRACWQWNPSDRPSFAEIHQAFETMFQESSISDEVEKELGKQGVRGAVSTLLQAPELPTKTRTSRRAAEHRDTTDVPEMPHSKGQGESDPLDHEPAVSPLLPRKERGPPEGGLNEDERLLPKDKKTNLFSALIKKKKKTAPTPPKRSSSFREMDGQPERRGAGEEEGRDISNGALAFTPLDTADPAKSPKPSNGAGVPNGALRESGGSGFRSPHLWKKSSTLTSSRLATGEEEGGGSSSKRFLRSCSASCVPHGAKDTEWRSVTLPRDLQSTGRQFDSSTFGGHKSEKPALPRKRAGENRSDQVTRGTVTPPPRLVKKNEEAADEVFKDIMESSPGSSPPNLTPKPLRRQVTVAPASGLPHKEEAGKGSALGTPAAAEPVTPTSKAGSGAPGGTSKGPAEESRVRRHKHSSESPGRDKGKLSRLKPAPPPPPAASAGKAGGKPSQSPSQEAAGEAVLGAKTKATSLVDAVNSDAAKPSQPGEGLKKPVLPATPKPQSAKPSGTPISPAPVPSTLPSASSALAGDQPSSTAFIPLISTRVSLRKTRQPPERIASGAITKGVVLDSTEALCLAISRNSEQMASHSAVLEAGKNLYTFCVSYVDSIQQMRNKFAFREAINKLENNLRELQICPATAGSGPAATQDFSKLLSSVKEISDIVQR
UniProt Q16512, sequence (whole entry, looked up): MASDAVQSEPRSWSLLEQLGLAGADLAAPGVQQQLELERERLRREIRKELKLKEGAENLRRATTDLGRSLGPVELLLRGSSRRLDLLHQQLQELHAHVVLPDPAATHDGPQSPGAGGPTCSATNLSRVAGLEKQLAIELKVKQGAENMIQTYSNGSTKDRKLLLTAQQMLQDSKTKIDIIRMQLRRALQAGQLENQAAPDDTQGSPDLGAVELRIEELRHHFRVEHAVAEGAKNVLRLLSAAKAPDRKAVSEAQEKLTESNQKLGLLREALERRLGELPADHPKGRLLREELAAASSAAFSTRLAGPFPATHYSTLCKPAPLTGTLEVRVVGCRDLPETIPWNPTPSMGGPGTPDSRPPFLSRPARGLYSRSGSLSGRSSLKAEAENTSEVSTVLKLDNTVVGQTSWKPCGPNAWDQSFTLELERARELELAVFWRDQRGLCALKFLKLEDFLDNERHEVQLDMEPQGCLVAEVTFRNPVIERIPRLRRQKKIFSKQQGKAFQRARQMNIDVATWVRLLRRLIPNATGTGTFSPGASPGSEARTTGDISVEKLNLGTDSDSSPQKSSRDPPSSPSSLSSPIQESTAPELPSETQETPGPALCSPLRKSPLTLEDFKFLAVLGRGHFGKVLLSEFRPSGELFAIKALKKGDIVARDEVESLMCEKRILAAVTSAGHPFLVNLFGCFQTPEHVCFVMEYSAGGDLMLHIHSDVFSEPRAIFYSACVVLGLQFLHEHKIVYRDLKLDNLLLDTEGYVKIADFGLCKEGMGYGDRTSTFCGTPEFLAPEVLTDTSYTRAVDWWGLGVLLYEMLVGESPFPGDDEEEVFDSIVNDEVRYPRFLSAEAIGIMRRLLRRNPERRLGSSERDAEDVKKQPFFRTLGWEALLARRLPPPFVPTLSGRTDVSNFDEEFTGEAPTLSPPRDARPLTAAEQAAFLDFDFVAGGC
UniProt Q15349, sequence (whole entry, looked up): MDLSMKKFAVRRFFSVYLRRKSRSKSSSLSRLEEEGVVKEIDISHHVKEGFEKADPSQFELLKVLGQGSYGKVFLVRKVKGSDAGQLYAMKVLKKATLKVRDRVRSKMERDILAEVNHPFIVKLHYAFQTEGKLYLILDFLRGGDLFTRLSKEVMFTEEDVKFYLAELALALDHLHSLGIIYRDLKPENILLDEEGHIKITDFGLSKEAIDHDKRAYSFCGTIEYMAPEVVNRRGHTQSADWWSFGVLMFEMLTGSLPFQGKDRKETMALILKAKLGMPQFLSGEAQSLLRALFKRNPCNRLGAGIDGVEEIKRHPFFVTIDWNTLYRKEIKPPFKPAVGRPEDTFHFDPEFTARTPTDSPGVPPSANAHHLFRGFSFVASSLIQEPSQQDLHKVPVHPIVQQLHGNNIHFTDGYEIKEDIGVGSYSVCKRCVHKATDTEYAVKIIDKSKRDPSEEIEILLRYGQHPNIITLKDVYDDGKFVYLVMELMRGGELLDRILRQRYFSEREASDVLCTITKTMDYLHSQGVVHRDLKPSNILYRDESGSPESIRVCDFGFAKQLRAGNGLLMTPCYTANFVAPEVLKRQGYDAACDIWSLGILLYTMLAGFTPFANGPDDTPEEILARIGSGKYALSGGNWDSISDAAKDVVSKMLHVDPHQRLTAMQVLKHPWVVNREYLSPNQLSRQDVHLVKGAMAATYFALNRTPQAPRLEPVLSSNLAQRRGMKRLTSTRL
UniProt O15197, sequence (whole entry, looked up): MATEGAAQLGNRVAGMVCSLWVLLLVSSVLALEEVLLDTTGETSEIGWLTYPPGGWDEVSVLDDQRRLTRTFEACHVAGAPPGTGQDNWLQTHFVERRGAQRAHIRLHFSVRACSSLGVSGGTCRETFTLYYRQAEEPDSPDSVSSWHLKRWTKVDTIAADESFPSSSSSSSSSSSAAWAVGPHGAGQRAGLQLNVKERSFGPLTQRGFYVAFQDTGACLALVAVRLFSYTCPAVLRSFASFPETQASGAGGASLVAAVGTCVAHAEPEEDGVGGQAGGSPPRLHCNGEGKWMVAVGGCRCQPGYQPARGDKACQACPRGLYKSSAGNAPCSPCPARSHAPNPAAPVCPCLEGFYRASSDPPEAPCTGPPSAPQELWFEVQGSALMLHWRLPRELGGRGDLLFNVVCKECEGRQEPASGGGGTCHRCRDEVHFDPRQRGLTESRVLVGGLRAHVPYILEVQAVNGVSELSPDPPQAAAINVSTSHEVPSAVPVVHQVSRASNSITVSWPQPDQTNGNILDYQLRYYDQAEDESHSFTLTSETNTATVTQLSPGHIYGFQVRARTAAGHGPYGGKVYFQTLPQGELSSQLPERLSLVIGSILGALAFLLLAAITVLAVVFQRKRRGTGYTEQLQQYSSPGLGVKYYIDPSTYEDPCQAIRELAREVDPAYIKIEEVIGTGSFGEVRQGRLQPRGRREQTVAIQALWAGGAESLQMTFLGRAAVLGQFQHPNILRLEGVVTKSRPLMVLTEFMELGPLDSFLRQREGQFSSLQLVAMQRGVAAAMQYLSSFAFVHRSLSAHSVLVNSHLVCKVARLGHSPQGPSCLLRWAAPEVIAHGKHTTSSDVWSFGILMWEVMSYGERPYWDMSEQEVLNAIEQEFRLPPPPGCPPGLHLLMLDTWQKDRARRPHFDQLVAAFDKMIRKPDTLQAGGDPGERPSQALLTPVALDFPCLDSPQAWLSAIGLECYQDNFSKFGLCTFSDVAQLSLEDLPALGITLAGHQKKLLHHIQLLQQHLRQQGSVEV
UniProt P29597, sequence (whole entry, looked up): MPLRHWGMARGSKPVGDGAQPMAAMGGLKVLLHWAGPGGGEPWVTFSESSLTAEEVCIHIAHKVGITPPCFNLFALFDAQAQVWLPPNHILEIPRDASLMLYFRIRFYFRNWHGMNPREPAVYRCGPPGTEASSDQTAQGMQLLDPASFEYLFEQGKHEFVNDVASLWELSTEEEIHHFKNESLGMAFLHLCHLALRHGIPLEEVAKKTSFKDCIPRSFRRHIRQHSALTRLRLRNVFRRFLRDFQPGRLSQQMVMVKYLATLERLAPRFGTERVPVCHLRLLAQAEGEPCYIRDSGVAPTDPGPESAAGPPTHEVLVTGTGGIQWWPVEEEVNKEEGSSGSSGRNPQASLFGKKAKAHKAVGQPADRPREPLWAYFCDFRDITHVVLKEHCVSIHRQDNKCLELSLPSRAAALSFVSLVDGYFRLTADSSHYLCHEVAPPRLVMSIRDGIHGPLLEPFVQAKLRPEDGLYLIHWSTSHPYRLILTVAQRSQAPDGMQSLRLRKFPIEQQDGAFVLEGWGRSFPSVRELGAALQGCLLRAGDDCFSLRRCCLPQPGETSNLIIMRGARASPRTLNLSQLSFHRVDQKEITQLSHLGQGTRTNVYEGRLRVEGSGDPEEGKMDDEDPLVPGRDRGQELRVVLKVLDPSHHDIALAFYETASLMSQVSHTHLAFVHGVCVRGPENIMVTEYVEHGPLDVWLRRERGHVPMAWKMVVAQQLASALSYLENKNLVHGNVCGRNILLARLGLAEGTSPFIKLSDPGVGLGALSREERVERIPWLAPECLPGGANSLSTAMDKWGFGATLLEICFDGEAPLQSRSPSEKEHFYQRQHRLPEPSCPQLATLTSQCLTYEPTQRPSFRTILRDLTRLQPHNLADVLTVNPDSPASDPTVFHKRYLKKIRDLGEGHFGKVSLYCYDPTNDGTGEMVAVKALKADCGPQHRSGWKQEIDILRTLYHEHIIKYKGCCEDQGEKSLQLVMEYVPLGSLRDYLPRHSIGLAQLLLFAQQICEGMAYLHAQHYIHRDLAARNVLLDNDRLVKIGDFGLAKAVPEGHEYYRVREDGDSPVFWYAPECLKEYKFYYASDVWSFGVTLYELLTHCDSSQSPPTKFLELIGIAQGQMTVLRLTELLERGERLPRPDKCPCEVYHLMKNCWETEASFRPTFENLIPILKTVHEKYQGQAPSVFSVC

Sample 1 — medium: plasma; route: oral; dose: 400 mg once daily
Structure (SMILES): COc1ccc(-c2c(Nc3ccccn3)[nH]c3c(C4=CCCCC4)c(-c4ccccc4)nn3c2=O)cc1
| refers to | species | time | notes | mean plasma concentration |
| --- | --- | --- | --- | --- |
| S-adenosylmethionine | human patients | 2 h, cycle 1 |  | 20.1 ng/mL |
|  | human | 4 h | cycle 1 | 3750 ng/mL |
| S-adenosylmethionine | human patients | 8 h, cycle 1 |  | 20 ng/mL |

Sample 2 — organism: Sarcocystis neurona; effect on: parasite growth; concentration: 10 µM; notes: secondary screen
| SMILES | inhibition [%] |
| --- | --- |
| O=C1CC2(CCCC2)CC(=O)N1CCCCN1CCN(c2ncccn2)CC1 | -28.5 |
| O=C1[C@H](CC[C@H](O)c2ccc(F)cc2)[C@@H](c2ccc(O)cc2)N1c1ccc(F)cc1 | 12.2 |
| CC1(C)O[C@@H]2C[C@H]3[C@@H]4CCC5=CC(=O)C=C[C@]5(C)[C@@]4(F)[C@@H](O)C[C@]3(C)[C@]2(C(=O)CO)O1 | -57.4 |

Sample 3 — species: human; medium: microsomes or S9; concentration: 2 µM; time: 0.5 h
| SMILES | remaining compound [%] |
| --- | --- |
| Cc1nnc2ccc(N3CCNc4ccccc4C3)nn12 | 72.1 |
| CCc1nn2c(nnc3c(=O)n(NC(=O)c4ccccc4C)ccc32)c1-c1ccccc1 | > 99.9 |
| O=C(COc1ccc(Cl)cc1Cl)OCCNC1=NS(=O)(=O)c2ccccc21 | < 1 |

Sample 4 — technique: phase 2a trial; species: idiopathic pulmonary fibrosis patients; dose: all arms pooled
SMILES: CC(C)n1cnc(-c2ccc(F)cc2)c1-c1ncc(C(=O)Nc2ccc(N3CCN(C)CC3)cc2)[nH]1
| notes | patients with hypokalaemia [%] |
| --- | --- |
| grade 5 emergent event | 0 |
| grade 3 emergent event | 0 |
| grade 4 emergent event | 0 |

Sample 5 — effect on: cell-free assay; technique: competition with immobilised ligand; concentration: 1 µM
SMILES: Cc1nccc(COC(=O)N2C[C@@H]3[C@@H](CNC(=O)c4ccc5[nH]nnc5c4)[C@@H]3C2)n1
| target | remaining binding [%] |
| --- | --- |
| PKN1 (Homo sapiens, UniProt Q16512) | 100 |
| SNRK (Homo sapiens, UniProt Q9NRH2) | 98 |
| NEK11 (Homo sapiens, UniProt Q8NG66) | 88 |
| MAP4K5 (Homo sapiens, UniProt Q9Y4K4) | 100 |
| EGFR (Homo sapiens, UniProt P00533, del752-759) | 100 |
| PIKFYVE (Homo sapiens, UniProt Q9Y2I7) | 100 |
| HIPK2 (Homo sapiens, UniProt Q9H2X6) | 81 |
| Ribosomal protein S6 kinase alpha-2, C-terminal kinase domain (RPS6KA2, Homo sapiens, UniProt Q15349) | 91 |
| CIT (Homo sapiens, UniProt O14578) | 100 |
| MAP3K11 (Homo sapiens, UniProt Q16584) | 100 |
| EGFR (Homo sapiens, UniProt P00533, G719S) | 100 |
| EPHA5 (Homo sapiens, UniProt P54756) | 93 |
| KIT (Homo sapiens, UniProt P10721, A829P) | 94 |
| SGK3 (Homo sapiens, UniProt Q96BR1) | 100 |
| EGFR (Homo sapiens, UniProt P00533, L861Q) | 100 |
| PRKG1 (Homo sapiens, UniProt Q13976) | 100 |
| PLK2 (Homo sapiens, UniProt Q9NYY3) | 82 |
| NLK (Homo sapiens, UniProt Q9UBE8) | 41 |
| CLK4 (Homo sapiens, UniProt Q9HAZ1) | 97 |
| FGFR4 (Homo sapiens, UniProt P22455) | 81 |
| Tyrosine-protein kinase ABL1, non-phosphorylated (ABL1, Homo sapiens, UniProt P00519) | 91 |
| TNK2 (Homo sapiens, UniProt Q07912) | 100 |
| TAOK1 (Homo sapiens, UniProt Q7L7X3) | 85 |
| PIK3CD (Homo sapiens, UniProt O00329) | 85 |
| MYLK (Homo sapiens, UniProt Q15746) | 100 |

Sample 6 — cell line: mouse MPNST tumor cells; technique: high-content nuclear imaging; refers to: cell number; concentration: 10 µM; time: 12 h; notes: mean of 2 replicates; baseline: plate mean; direction: higher = more cells
| Compound | nuclei count |
| --- | --- |
| COc1cc2c(cc1C(F)(F)F)N(C(=O)Nc1cc(F)cc(-c3cccnc3)c1)CC2 | -5.09 z-score |
| Nc1ncnc2c1cnn2-c1ccccc1 | 0.0345 z-score |
| Oc1ccc(-c2nc3cc(O)cc(Br)c3o2)cc1 | 3.27 z-score |
| CC(C)(CO)C(O)C(=O)NCCCO (stereo not drawn) | 1.06 z-score |

Sample 7 — concentration: 1 µM
Compound: Cc1ccc(NC(=O)c2ccnc(C(F)(F)F)c2)cc1-c1cc(OCCO)nc(N2CCOCC2)c1
| target | effect on | technique | remaining binding |
| --- | --- | --- | --- |
| ABL1 (Homo sapiens, UniProt P00519, Q252H) |  |  | 59% and 99% |
| PKN1 (Homo sapiens, UniProt Q16512) | binding |  | 100% |
| EPHB6 (Homo sapiens, UniProt O15197) | binding | competition with immobilised ligand | 95% |
| Non-receptor tyrosine-protein kinase TYK2, JH2 (TYK2, Homo sapiens, UniProt P29597) | binding | competition with immobilised ligand | 100% |

Sample 8 — cell line: A-375; concentration: 100 µM; time: 36 h
| SMILES | viability [%] |
| --- | --- |
| CCOC(=O)C1=C[C@]2(CC)CCCN3CCc4c(n1c1ccccc41)[C@@H]32 | 21 |
| COc1ccc(NS(=O)(=O)c2ccc(N)cc2)nn1 | 102 |
| CC(=O)OCC(=O)[C@@]1(O)CC[C@H]2[C@@H]3CCC4=CC(=O)C=C[C@]4(C)[C@H]3[C@@H](O)C[C@@]21C | 121 |

Single results of other studies
| Structure (SMILES) | tested on | assay | system | conditions | measurement | result |
| --- | --- | --- | --- | --- | --- | --- |
| COc1cc2ncnc(Nc3ccc(F)c(Cl)c3)c2cc1OCCCN1CCOCC1 | Cyclin-dependent kinase 9, with cyclin K (CDK9, Homo sapiens, UniProt P50750) | cell-free assay |  | 0.5 µM | remaining signal | 99.3% |
| CC(C)(C)c1cnc(CSc2cnc(NC(=O)C3CCN(CCCCCSc4cccc5c4CN(C4CCC(=O)NC4=O)C5=O)CC3)s2)o1 (stereo not drawn) |  |  | NSG mouse, HuT78 xenograft | dose not given, end of study | tumour weight | 0.502 g and 0.359 g and 0.383 g and 0.32 g and 0.414 g |
| CN(C(=O)c1ccn2ncc(-c3ccc(C(N)=O)cc3)c2c1)c1ccc(C#N)cn1 | Cryptosporidium parvum | qPCR | IFN-gamma knockout mouse | intravenous, 1 mg/kg | faecal oocyst shedding | 6.9 log oocysts/g faeces |

Repeated from above (sample 6):
| Compound | nuclei count |
| --- | --- |
| Nc1ncnc2c1cnn2-c1ccccc1 | 0.0345 z-score |
| CC(C)(CO)C(O)C(=O)NCCCO (stereo not drawn) | 1.06 z-score |
| COc1cc2c(cc1C(F)(F)F)N(C(=O)Nc1cc(F)cc(-c3cccnc3)c1)CC2 | -5.09 z-score |
| Oc1ccc(-c2nc3cc(O)cc(Br)c3o2)cc1 | 3.27 z-score |
